Measured values of several laboratories.
Every numbered part comes from another study and shows a few of its results, in no order.
Sequence of UniProt P62344 (whole entry, looked up): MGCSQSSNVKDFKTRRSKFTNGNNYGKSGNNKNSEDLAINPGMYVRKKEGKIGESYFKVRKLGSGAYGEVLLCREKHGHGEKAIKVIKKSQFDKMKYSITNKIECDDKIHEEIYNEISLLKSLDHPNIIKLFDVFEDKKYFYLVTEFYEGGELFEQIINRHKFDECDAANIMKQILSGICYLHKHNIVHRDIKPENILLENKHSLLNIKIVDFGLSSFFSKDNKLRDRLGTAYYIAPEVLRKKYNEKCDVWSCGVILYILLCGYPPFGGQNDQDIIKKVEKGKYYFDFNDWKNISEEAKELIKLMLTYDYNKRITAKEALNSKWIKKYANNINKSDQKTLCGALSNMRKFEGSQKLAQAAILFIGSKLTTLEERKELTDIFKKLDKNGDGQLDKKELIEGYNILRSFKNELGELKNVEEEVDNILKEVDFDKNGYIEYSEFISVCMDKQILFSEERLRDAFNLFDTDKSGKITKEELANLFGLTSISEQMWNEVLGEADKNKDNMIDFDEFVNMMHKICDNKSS
Sequence of UniProt P31749 (whole entry, looked up): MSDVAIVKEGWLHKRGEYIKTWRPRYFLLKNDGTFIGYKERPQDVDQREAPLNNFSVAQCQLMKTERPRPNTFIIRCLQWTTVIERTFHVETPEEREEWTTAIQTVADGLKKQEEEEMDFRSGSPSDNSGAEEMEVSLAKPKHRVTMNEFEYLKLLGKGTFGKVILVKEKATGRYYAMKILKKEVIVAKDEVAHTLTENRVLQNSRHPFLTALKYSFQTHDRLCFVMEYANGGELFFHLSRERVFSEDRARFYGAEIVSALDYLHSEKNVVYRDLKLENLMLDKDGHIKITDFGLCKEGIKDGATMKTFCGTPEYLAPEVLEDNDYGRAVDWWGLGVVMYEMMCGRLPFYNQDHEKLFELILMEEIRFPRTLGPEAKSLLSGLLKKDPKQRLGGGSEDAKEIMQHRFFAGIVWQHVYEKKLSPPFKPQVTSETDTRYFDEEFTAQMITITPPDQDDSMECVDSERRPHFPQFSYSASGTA

Sample 1
Species: mouse
Matrix: microsomes or S9
Tested at: 2 µM
Time: 0.5 h
SMILES | remaining compound [%]
CCOc1ccc(N2C(=O)c3c(C(=O)OC)ncn3CC2(C)C(=O)NC2CCCCCC2)cc1 (stereo not drawn) | 47.5
Cc1ccc2[nH]cc(CCNC(=O)Nc3ccc(Cl)c(Cl)c3)c2c1 | 25.3
CC(C)(C)c1ccc(Oc2ccc(N)c(Cl)c2)cc1 | 14.7
c1ccc(Cn2ncc3c(-n4ccnc4)ncnc32)cc1 | 48.4
CN1CCc2c(c3ccccc3n2-c2cncnc2)C1 | 28.8
COc1ccccc1N1C(=N)C(C)(C(C)C)NC1=O (stereo not drawn) | 93.6
COCC(=O)NC(c1ccccc1)c1ccccc1 | 13.6
O=C(OCc1ccccc1)N1CCC2(CC1)CNc1ccccc12 | 4.66

Sample 2
Cell line: HaCaT
Tested at: 100 µM
Time: 36 h
Compound | viability [%]
COc1c(N2C[C@@H]3CCCN[C@@H]3C2)c(F)cc2c(=O)c(C(=O)O)cn(C3CC3)c12 | 90.3
CC[C@H](C)C(=O)O[C@H]1C[C@@H](C)C=C2C=C[C@H](C)[C@H](CC[C@@H]3C[C@@H](O)CC(=O)O3)[C@H]21 | 18.5
O=C1O[C@H](CO)[C@@H](O)[C@H](O)[C@H]1O | 83.5
Cc1ccc(NC(=O)c2ccc(CN3CCN(C)CC3)cc2)cc1Nc1nc(-c2cccnc2)cs1 | 6.29
CC(=O)OCC(COC(C)=O)OC(C)=O | 85.3
O=C(Oc1ccccc1C(=O)O)c1ccccc1O | 82.6
CN(C)c1nc(N(C)C)nc(N(C)C)n1 | 81.5
Cc1c(C(=O)Nc2ccc(N3C[C@@H](C)O[C@@H](C)C3)nc2)cccc1-c1ccc(OC(F)(F)F)cc1 | 16.5

Mixed results
Compound | target | observed | action | method | tested at | measurement | value
CNC(=O)c1ccc(-c2cnn3ccc(C(=O)N(C)c4ccc(Cl)c(C(=O)O)c4)cc23)cc1 | AKT1 (Homo sapiens, UniProt P31749) | enzyme activity | inhibitor | – | – | IC50 | > 30 µM
CSc1cccnc1N1CCN(Cc2nc3ccccc3[nH]2)CC1 | CDPK1 (Plasmodium falciparum, UniProt P62344) | cell-free assay | – | competition with immobilised ligand | 1 µM | remaining binding | 89%

Some of these lines once more (sample 2):
Compound | viability [%]
COc1c(N2C[C@@H]3CCCN[C@@H]3C2)c(F)cc2c(=O)c(C(=O)O)cn(C3CC3)c12 | 90.3
CC[C@H](C)C(=O)O[C@H]1C[C@@H](C)C=C2C=C[C@H](C)[C@H](CC[C@@H]3C[C@@H](O)CC(=O)O3)[C@H]21 | 18.5
